Results pooled from the literature.
Parts stem from different laboratories: compare values within a part only.

Sample 1
Target: Histone acetyltransferase KAT6A, winged helix 1, GST fusion (KAT6A, Homo sapiens, UniProt Q92794, residues 1-85)
Method: protein binding microarray
Form: double-stranded DNA, one strand shown
Sample: in vitro
Concentration: not given
Setting: 8-mer, flanks averaged, mean of 2 arrays, mostly near background
Baseline: not given
Reading: higher = stronger binding
Residues (chain): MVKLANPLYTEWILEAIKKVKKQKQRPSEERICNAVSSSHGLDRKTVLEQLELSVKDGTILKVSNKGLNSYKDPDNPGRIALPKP
| Strand | E-score |
| --- | --- |
| CCCTATAC | -0.0795 |
| ATTATTCG | -0.0764 |
| AAATCTAC | -0.0884 |
| CCGCCCGA | 0.331 |
| CCTCGACG | 0.0905 |
| AGGAAAGG | -0.153 |
| AGCTACAC | -0.0762 |
| ACAAGCCG | 0.323 |
| ACGGGGTA | 0.158 |
| CAACAAGG | -0.15 |
| GAGTTACA | -0.0221 |
| GACACTCA | 0.0122 |
| CAGGCCCC | -0.101 |
| AGCGGACA | 0.256 |
| ATCAGTGG | -0.318 |
| AACATGAC | -0.000135 |
| AGCAGGGC | -0.0498 |
| CTGATGAA | -0.168 |
| AGGGCGAA | 0.0112 |
| GCAGCGAA | 0.0276 |
| AGATTACA | 0.0152 |

Sample 2
Substance: PhoQ, residues 284 288 289 292 302 303 TAVSDG
Method: Sort-seq
Item: YFP reporter
Sample: E. coli
Setting: PhoQ-PhoP variant library
Together with: 10 µM Mg2+
Baseline: high Mg2+ state
Reading: higher = stronger signaling
| target | fold induction |
| --- | --- |
| PhoP, residues 12 14 15 18 19 NFFVT (Escherichia coli, UniProt P23836) | 9.12 |
| PhoP, residues 12 14 15 18 19 LHHYF (Escherichia coli, UniProt P23836) | 2.92 |
| PhoP, residues 12 14 15 18 19 TPWTL (Escherichia coli, UniProt P23836) | 2.79 |
| PhoP, residues 12 14 15 18 19 VGHWL (Escherichia coli, UniProt P23836) | 1.28 |

Sample 3
Target: PABPC1L2, full length, GST fusion (mouse, UniProt A0ABA7IW68)
Method: RNAcompete
Form: RNA
Sample: in vitro
Concentration: 20 nM
Setting: 7-mer, probes averaged, single round
Baseline: mean of 7-mers
Reading: higher = stronger binding
Target sequence (chain): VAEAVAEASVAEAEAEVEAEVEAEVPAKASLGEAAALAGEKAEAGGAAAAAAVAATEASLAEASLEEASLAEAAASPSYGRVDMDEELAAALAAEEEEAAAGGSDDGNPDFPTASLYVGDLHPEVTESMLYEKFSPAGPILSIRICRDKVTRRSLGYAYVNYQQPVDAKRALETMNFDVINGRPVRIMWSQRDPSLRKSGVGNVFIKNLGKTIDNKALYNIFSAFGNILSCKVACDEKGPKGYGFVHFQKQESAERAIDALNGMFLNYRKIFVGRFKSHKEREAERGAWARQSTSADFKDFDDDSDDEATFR
| Strand | 7-mer Z-score |
| --- | --- |
| AUACAAC | 0.211 |
| CGGCCCC | -0.398 |
| AAUAUUA | 0.383 |
| GGAACCC | 0.0642 |
| UUUUGGU | -0.224 |
| UCCAAGC | -0.122 |
| GACGUUU | -0.427 |
| UAACGGU | -0.133 |
| CCACCCA | -0.171 |
| UCUAGAU | -0.199 |
| AAAGGUA | 0.704 |
| GUAGUUU | -0.454 |
| UCUAUAC | -0.3 |
| AGCUGUG | -0.184 |
| ACCGUUG | -0.179 |
| AGUGAGC | -0.199 |

Sample 4
Target: Sal-like protein 4, full length isoform A (SALL4, Homo sapiens, UniProt Q9UJQ4, residues 1-1053)
Sequence of UniProt Q9UJQ4 (whole entry, looked up): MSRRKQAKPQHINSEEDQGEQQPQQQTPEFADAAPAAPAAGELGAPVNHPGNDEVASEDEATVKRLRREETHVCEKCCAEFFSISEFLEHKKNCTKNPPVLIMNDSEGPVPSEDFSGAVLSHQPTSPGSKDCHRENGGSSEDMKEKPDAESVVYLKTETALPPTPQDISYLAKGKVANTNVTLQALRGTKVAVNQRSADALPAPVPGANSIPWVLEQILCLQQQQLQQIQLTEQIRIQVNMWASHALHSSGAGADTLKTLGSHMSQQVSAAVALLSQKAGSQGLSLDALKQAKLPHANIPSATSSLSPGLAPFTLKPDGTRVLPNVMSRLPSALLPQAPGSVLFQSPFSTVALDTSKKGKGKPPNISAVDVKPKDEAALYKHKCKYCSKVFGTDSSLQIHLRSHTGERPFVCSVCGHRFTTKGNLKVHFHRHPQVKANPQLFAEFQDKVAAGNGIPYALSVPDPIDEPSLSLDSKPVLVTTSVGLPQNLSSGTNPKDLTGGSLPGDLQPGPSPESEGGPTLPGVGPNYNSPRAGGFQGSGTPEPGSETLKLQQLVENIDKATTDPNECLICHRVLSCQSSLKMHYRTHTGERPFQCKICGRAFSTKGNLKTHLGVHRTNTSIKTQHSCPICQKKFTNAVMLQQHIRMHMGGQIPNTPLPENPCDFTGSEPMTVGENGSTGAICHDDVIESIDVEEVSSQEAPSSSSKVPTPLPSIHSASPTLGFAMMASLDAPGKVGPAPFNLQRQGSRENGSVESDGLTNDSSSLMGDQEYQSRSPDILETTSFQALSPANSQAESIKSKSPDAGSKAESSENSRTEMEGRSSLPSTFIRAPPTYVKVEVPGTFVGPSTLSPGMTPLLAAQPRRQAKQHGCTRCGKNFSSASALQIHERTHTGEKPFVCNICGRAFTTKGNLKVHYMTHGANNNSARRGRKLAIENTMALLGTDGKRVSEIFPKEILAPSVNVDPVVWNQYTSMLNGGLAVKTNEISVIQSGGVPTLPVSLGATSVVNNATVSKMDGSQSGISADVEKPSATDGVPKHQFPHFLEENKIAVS
Method: universal PBM
Form: double-stranded DNA, one strand shown
Sample: in vitro
Concentration: 600 nM
Setting: 8-mer, flanks averaged, mean of replicates
Reading: higher = stronger binding
| Strand | E-score |
| --- | --- |
| GGAGTTTA | 0.18 |
| AACAACGC | 0.107 |
| GGCACGAA | -0.181 |
| GACAGGCA | -0.145 |
| ACAGGTAC | -0.0337 |
| ACTTACTG | 0.119 |
| GCCCCACC | -0.24 |
| AAATAAGG | 0.151 |
| CGTCGAGC | -0.165 |
| CCCCGCCG | -0.357 |
| CTGTCAAG | -0.0668 |
| CGCTCATC | -0.0174 |
| CCGTGGTC | -0.333 |
| GGATAGCC | -0.209 |
| CACGGGCC | -0.435 |

For quick reference, copied from above (sample 3):
| Strand | 7-mer Z-score |
| --- | --- |
| AAUAUUA | 0.383 |
| UCUAGAU | -0.199 |
| AAAGGUA | 0.704 |
| UAACGGU | -0.133 |
